Measurements from different studies.
Each numbered part is a random draw from the data of one study; scales do not carry over between parts. Substitutions count along the parent as printed.

Series 1 — target: CCNF, cyclin fold, Cln2 fusion (human); method: yeast growth competition, sequencing; matrix: yeast; notes: strong parent motif; baseline: not given; reading: higher = stronger binding
Starting sequence: RBL1 docking peptide (human); GSAKRRLFGEDPP; partner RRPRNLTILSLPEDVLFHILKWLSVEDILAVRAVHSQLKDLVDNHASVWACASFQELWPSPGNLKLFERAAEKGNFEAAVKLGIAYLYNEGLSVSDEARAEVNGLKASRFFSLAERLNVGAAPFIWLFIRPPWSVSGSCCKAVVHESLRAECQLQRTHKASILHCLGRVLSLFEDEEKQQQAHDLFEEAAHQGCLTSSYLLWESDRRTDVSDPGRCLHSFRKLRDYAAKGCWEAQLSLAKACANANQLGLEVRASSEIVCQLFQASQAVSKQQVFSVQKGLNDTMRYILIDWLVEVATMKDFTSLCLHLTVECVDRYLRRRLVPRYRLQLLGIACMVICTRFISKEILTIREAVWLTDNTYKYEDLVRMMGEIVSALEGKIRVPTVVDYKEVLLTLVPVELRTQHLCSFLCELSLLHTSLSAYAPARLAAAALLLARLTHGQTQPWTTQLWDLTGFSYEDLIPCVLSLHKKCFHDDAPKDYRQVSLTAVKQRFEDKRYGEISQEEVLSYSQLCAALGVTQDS
Change | normalised enrichment score
L7V | 1.29
G1P | 8.37
L7K | 1.04
P12N | 7.43
L7C | 0.16
R6I | 3.82
A3M | 3.12
P12H | 7.29
S2L | 7.17
G9T | 7.04
L7D | -0.268
K4C | 6.79
G1Q | 8.76
P13C | 6.15
S2K | 6.7
K4D | 0.162
D11C | 7.69
P12Q | 7.01
D11V | 6.87
L7G | 0.586
A3C | 7.49
L7H | -0.161
P12A | 6.45
G1S | 5.78
S2M | 6.76

Series 2 — method: universal PBM; form: double-stranded DNA, one strand shown; matrix: in vitro; tested at: not given; reading: higher = stronger binding
Target: Sal-like protein 4, full length isoform B (SALL4, Homo sapiens, UniProt Q9UJQ4-2, residues 1-616)
Notes: 8-mer, flanks averaged, mean of replicates
Strand | E-score
CCCGCCCC | -0.201
CTAGACTA | -0.0123
CTATTACA | 0.215
CGGGGAAC | -0.203
CGCGGGAC | -0.164
GTAAAGGA | 0.108
CCGGTTTC | -0.297
AATGCGCA | 0.135
CGTGATCC | -0.345
ACATTAAT | 0.322
GAGGGATA | -0.0563
CATTCAAC | 0.156
AAGGCAAA | 0.124
GGTGAAAC | -0.115
ATACCGGC | -0.201
CGTGCAGC | -0.23
TAGGCAGA | 0.143
CGATTCGA | -0.0433
AGTTCTAA | 0.172
AAAAAAGG | 0.0579
ACCGGTCT | -0.292
GATGTGTA | 0.132

Series 3 — method: protein binding microarray; form: double-stranded DNA, one strand shown; matrix: in vitro; tested at: not given; baseline: not given; reading: higher = stronger binding
Target: Histone acetyltransferase KAT6A, winged helix 1, GST fusion (KAT6A, Homo sapiens, UniProt Q92794, residues 1-85)
Notes: 8-mer, flanks averaged, mean of 2 arrays, mostly near background
Residues (chain): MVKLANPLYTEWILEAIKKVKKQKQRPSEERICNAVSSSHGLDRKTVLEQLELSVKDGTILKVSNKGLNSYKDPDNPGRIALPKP
Strand | E-score
CGTGTTTC | 0.102
CATGAACA | -0.0799
GGTGCTCA | -0.0778
TCCGCACA | 0.182
ACATATTA | -0.0401
CCAGGTCG | -0.0482
ACTCCGTA | 0.246
ACTATAAA | -0.141
CGCCCCCC | 0.18
GAACAAAA | -0.107
GGGTCGGA | 0.163
AGTCCGGA | 0.081
AACTCCTG | -0.129
CTTTGTAA | -0.157
ACTGCAAG | -0.0785
CGGTCATC | 0.197
AACGCCCC | 0.0413
CGGCGACC | 0.399
ACTGACTA | -0.316
AGCTCATA | -0.0406
CCATGTCC | -0.00233
CCTTGACA | -0.12
CACGATAC | -0.101
GCTGGCCC | 0.0641
AATGAAAC | -0.215

Series 4 — method: protein-binding microarray; form: double-stranded DNA, one strand shown; matrix: in vitro; tested at: 250 nM; notes: 60-bp whole probe; with: salmon DNA 0.4 mg/ml; baseline: random background probes; reading: higher = stronger binding; all sequences stand within: GCCTAGCAC … GTCTTGATTCGCTTGACGCTGCTG
Target: Interferon regulatory factor 5, full length, phosphomimetic (IRF5, Homo sapiens, UniProt Q13568-2, residues 1-514, K96S/S451D/S453D/S456D/S462D)
Strand | log fluorescence
GACGAAATGAGTCTCGAGACGTGCTAG | 0.567 z-score
TCATTAATGAAAATTCTAACTGTGCTA | 0.881 z-score
GACGGTTTCGGTTCTGGGACGTGCTAG | 9.48 z-score
TTAGGTTTCCTTCTCCTTTCGTGCTAG | 1.74 z-score
GACGGACTGCTGCTCCTGACGTGCTAG | -0.783 z-score
TTAGGTTTCCTTTCCCTGTAGTGCTAG | 1.54 z-score
TTAGATCTCAGACTAGATTAGTGCTAG | 0.00628 z-score
GACGGTATCCTTTTCCTGGCGTGCTAG | 0.253 z-score
AAATATATACAAACTAAGGATGTGCTA | 0.543 z-score
TTAGAACTTGGGTTTCGATTAGTGCTA | 6.82 z-score
GACGGTATCGGGTTTAGGGACGTGCTA | 2.18 z-score
AAGATTCTAGCCTATAGAAGCGTGCTA | -0.2 z-score
TTAGGACTGGACTATCGTTTAGTGCTA | 1.69 z-score
CTTTAACTCATTTTCGTTTTGTGCTAG | 5.03 z-score
TTAGGACCGCTACTGCTTTAGTGCTAG | -0.33 z-score
CTCCCATTATATTTTAATCAGTGCTAG | 0.594 z-score
GACGGTTTCGGGTATCAGGACGTGCTA | 8.24 z-score

A few entries again (series 4):
Strand | log fluorescence
GACGAAATGAGTCTCGAGACGTGCTAG | 0.567 z-score
TCATTAATGAAAATTCTAACTGTGCTA | 0.881 z-score
GACGGTTTCGGTTCTGGGACGTGCTAG | 9.48 z-score
TTAGGTTTCCTTCTCCTTTCGTGCTAG | 1.74 z-score
GACGGACTGCTGCTCCTGACGTGCTAG | -0.783 z-score
TTAGGTTTCCTTTCCCTGTAGTGCTAG | 1.54 z-score
TTAGATCTCAGACTAGATTAGTGCTAG | 0.00628 z-score
GACGGTATCCTTTTCCTGGCGTGCTAG | 0.253 z-score
AAATATATACAAACTAAGGATGTGCTA | 0.543 z-score
